Published values of several laboratories.
A part holds a random share of what one study measured. Positions count from the first letter of the parent shown.

Sample 1
Target: CCNE2, cyclin fold, Cln2 fusion (human)
Technique: yeast growth competition, sequencing
Medium: yeast
Notes: weak parent motif
Relative to: not given
Direction: higher = stronger binding
Parent: DNAH7 docking peptide (human); HELFQRLDFDNDG; partner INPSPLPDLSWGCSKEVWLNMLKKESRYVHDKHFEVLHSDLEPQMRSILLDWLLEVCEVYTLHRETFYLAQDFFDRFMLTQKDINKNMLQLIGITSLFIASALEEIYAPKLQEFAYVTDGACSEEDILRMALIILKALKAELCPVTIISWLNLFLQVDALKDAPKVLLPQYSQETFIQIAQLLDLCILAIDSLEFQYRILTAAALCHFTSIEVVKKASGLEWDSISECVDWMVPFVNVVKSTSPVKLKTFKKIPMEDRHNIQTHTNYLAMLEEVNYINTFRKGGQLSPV
Under “normalised enrichment score”, `HELFQRLDFANDG [D10A]` is recorded as -0.247.
Under “normalised enrichment score”, `HELAQRLDFDNDG [F4A]` is recorded as -0.121.
Under “normalised enrichment score”, `HELFQRLDFDNAG [D12A]` is recorded as -0.246.
Under “normalised enrichment score”, `HELFQALDFDNDG [R6A]` is recorded as -0.235.
`HEAFQRLDFDNDG [L3A]` — result for “normalised enrichment score”: -0.304.
`HELFQRLAFDNDG [D8A]`: “normalised enrichment score” -0.0231.
`HELFQRADFDNDG [L7A]`: “normalised enrichment score” -0.189.

Sample 2
Target: Ras GTPase-activating protein-binding protein 1, RRM domain (G3BP1, Homo sapiens, UniProt Q13283)
UniProt Q13283, sequence (whole entry, looked up): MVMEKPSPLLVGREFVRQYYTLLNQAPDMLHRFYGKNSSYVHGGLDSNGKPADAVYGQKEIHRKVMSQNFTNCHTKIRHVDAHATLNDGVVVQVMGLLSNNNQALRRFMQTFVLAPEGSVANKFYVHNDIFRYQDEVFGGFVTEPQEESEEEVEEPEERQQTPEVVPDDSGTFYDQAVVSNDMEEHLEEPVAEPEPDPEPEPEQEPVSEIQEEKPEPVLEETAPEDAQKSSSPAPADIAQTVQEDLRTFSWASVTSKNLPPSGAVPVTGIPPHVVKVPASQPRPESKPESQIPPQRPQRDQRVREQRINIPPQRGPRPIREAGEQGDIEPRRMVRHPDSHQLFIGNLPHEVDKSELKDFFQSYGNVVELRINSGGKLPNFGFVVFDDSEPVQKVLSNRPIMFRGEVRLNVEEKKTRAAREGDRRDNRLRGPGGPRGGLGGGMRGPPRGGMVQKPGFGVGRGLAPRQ
Technique: RNA Bind-n-Seq
Molecule type: RNA
Medium: in vitro
Concentration: 1 µM
Notes: whole 134-nt RNA, ends assumed
With: 150 mM KCl
Relative to: input library
Direction: higher = stronger binding
For `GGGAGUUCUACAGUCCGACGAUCUCCCAAUGCUCGGAGGAAGCCCAAGGGCAGCCCUCGUGUACCUGAUGCCAAGAAGCCUAAACCCAAGAAAGUAGCUCCCCUGAAAAUCAAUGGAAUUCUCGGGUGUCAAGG`, the log2 enrichment was -0.0519.
`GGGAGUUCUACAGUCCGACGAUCCACAGACAAAACGCACCCACACAGACACAGAGGGAAGGGGUUGGGAUGGGGACAGGGUGCACAGCAGGGCGGGGUAGGACCCCAGCCCCUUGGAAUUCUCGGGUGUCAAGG` gave a log2 enrichment of -0.146.
`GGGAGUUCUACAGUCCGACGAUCCACAGACAACACGCACCCACACAGACACAGAGGGAAGGGGUUGGGAUGGGGACAGGGUGCACGGCAGGGCGGGGUAGGACCCCAGCCCCUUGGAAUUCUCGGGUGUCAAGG` gave a log2 enrichment of 0.0382.
`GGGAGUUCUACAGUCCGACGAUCCCUGUGCUACACAUCGUAUGUACCGAAUCGGGGAGGGGUUUUUUUGGGGAAAAAAAGGGGAAAGUAUUAUGUUACGCCGUUCGGAUCUGCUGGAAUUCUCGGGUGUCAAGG` has a log2 enrichment of 0.364.
With `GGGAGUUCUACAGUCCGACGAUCCACAGACAACACGCACCCACACAGACACAGAGGGAAGGGGUUGGGAUGGGGACAGGGUGCACAGCAGGGCGGGGUAGGACCCCAGCCCCUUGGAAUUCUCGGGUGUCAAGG` the log2 enrichment was -0.0698.
For `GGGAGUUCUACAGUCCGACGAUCUCAAGUCCUGUGCUACACAUCGUAUGUACCGAAUCGGUUUGGGUUUGGGGUUUGGAAAGUAUUAUGUUACGCCGUUCGGAUCUGCACUUCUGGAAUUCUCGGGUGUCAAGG`, the log2 enrichment was -0.272.
`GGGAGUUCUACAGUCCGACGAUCCUGUGCUACACAUCGUAUGUACCGAAUCGGGGUUUUUUUGGGGAAAGGGGUUUUUUUGGGGAAAGUAUUAUGUUACGCCGUUCGGAUCUGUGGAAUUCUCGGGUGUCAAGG` has a log2 enrichment of 0.353.
`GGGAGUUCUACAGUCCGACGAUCUGGGAGGUGGAUUUUGUUUAUUUUUUUAGCUCAUUUCCAGGGCUGGGAAUUUUUUUUUAAUAUGUGUCAUGAAUAAAGUUGUUUUUGAAAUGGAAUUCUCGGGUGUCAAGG` has a log2 enrichment of 1.44.
The log2 enrichment of `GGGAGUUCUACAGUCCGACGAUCACCAGGCAGGUGGGCAUCUUUGGGAAGUGGGGCAAGGGGGGGAUAGGGAGGGGGGUAACACUUUGGGAACAGGUGGUCCCAGGUCGUUUCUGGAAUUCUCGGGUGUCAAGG` is reported as -0.704.
The log2 enrichment of `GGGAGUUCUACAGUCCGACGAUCUCCUGUGCUACACAUCGUAUGUACCGAAUCAAAGUGUGUGUGUGAAAUGUGUGUGUGAAAAAAGUAUUAUGUUACGCCGUUCGGAUCUGCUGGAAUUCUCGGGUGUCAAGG` is reported as -0.0347.

Sample 3
Target: OGT, full length, His-tagged (human)
Technique: phage display, sequencing
Medium: in vitro
Concentration: 1 µg OGT
Notes: single substitutions, 15-mer displayed peptide, unchanged parent 19.6
Relative to: input library
Direction: higher = stronger binding
Parent: peptide; TAPFYPPAYQIQVFK
With `TMPFYPPAYQIQVFK [A2M]` the fold enrichment was 23.3 fold.
The fold enrichment of `TAPFYPPAYQIQVMK [F14M]` is reported as 12.7 fold.
The fold enrichment of `TAPFYPPATQIQVFK [Y9T]` is reported as 1.16 fold.
`TAPFYPPAYQIQPFK [V13P]` gave a fold enrichment of 9.1 fold.
For `TAPFYPPAYQIPVFK [Q12P]`, the fold enrichment was 9.24 fold.
`TAPFYPPAYPIQVFK [Q10P]` has a fold enrichment of 1.49 fold.
`TAPFYPPAYQEQVFK [I11E]` gave a fold enrichment of 0.748 fold.
The fold enrichment of `TAPFYPPAYQIQMFK [V13M]` is reported as 10.8 fold.
For `AAPFYPPAYQIQVFK [T1A]`, the fold enrichment was 17.6 fold.
`TAPFYPWAYQIQVFK [P7W]` has a fold enrichment of 2.88 fold.
With `TAPFYPPAYQIQVFW [K15W]` the fold enrichment was 6.63 fold.
`TAPFYRPAYQIQVFK [P6R]` has a fold enrichment of 1.59 fold.
The fold enrichment of `HAPFYPPAYQIQVFK [T1H]` is reported as 20.9 fold.
With `TAPHYPPAYQIQVFK [F4H]` the fold enrichment was 14.9 fold.
For `TAPFYPPAYQIQVFG [K15G]`, the fold enrichment was 9.82 fold.
The fold enrichment of `TRPFYPPAYQIQVFK [A2R]` is reported as 16.5 fold.
The fold enrichment of `TAPFYPPAYQIQVDK [F14D]` is reported as 11.4 fold.
`VAPFYPPAYQIQVFK [T1V]` gave a fold enrichment of 21 fold.
`TAPFNPPAYQIQVFK [Y5N]` gave a fold enrichment of 0.824 fold.
`TAPFYPPAYMIQVFK [Q10M]` has a fold enrichment of 2.5 fold.
For `TAPFYPPAAQIQVFK [Y9A]`, the fold enrichment was 1.07 fold.
`TAPFYPPAYQIQVFL [K15L]` gave a fold enrichment of 9.39 fold.

Sample 4
Target: RING finger protein unkempt homolog, zinc fingers 1-6, SBP tag (UNK, Homo sapiens, UniProt Q9C0B0, residues 30-357)
UniProt Q9C0B0, sequence (30-357, looked up): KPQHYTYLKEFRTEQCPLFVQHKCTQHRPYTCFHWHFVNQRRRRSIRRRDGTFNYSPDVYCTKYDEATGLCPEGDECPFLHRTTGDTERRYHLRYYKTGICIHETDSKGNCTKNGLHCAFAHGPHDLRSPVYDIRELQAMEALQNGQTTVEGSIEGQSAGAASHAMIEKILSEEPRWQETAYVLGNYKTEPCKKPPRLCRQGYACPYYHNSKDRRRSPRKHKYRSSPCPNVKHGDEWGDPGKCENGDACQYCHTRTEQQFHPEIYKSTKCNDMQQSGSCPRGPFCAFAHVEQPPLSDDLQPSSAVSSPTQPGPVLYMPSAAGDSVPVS
Technique: RNA Bind-n-Seq
Molecule type: RNA
Medium: in vitro
Concentration: 100 nM
Notes: RNA with constant flanks, vertebrate orthologous sites, ends assumed
Relative to: input RNA pool
Direction: higher = stronger binding
`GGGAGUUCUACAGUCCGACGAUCGUUAAUUGUGUACCAAAUGCUGAGUGAGGAUCACAUUAAACCAUCAGUUAGAAUAGAGAUUUGUUACAGUUUAGCUUCAAAUAGGUUUCCUUAAACCAGAGAUGCACUGCCCUUGUCUGGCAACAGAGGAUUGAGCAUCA` has a bound/input enrichment of 1.59 ratio.
For `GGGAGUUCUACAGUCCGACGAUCCAGCAGAUUCUCUCAUAGGGAGAGCUGCACACAUUGCUGUUCUUGAUUCAGAAAUAUUUUUAGAAAAAUUCUUUCUUGUUGCUGCCCUAAAAUAUUUUCAGUAAAGAAAGGCUUUGUCAGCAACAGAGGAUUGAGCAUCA`, the bound/input enrichment was 0.284 ratio.
`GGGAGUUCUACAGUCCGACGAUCUAUUAUUCAUUUGAUUGAAAUUAUUUAGAUAAGUUAUUACUGUUUUCUUUCAAACAACAUAUCCUAUUUUUCAUCUAAUUUACAAAUAGCAGUUUGUGUGAUCUCUUCACAUACCAGAAUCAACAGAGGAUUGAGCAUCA` gave a bound/input enrichment of 0.272 ratio.
With `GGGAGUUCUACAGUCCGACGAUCUAUUCAUUUGAUUGAAUUUAUUUAGGAAAGAAAUUAUUACUGUUUAUGUUUUCUAGCUUAUCAUACUUUUCAUCCGUUUUGCAAUUAAUAAUUUCAUUUGACUUCUUAAUAUAUCAGAGCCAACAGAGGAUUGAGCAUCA` the bound/input enrichment was 0.483 ratio.
For `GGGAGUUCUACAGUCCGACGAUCUUUUAUCGAUCAGGUCUGUAAAUGUGAACUAAAAAAAUCAGAGUUUAUUUAUGAACAGAGUAGUUUAUUUGGAGAGCAGCUCUUGUCCCUUGGUCCUGUGGUCUGCACUCGCUACACUGUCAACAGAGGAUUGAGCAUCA`, the bound/input enrichment was 0.23 ratio.
For `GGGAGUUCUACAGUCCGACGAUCUCUAGGUGGGGGUAACCAUUAACAUAUUUAAAUAAAGAAAAGAAGUGCUGAAAAUCAUGUUAGUCCUAAGUUUAGUUGGAGAAUUUACAUAAGCCUCUUUUAGGUAAUUCUAAAAUUGAACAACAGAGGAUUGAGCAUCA`, the bound/input enrichment was 1.03 ratio.
`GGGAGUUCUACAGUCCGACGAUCGUUCUUAUUACACUCUUCUAGGGAAGAGAUGAACUGGGGAAAACUCUCCUUUUUAUAGAUUAAUUUGUCUCUAAAUUAUGACCAAAAAUAUUUUGCUAUUUCUUUAUAUAUGCACAUUUUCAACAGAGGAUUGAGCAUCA` has a bound/input enrichment of 0.569 ratio.
For `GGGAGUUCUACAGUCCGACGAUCAGGGAGAAGAGCUCACAAACUCAAAGGAAAACUAUUAAAGAGUUUCUAAUAGUUAAAAGCUAGGAAAGAUUAGGACUUUACAAAUGAGUAAUUAAAAAUAAAAAGUAAAAGGAUAUGGAACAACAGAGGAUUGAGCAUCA`, the bound/input enrichment was 0.786 ratio.
The bound/input enrichment of `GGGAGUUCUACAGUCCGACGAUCCACAUCUGGCGAUAUUUGGCCUGGCCUUUCUGCUUAUGAUAAUAGUCCCAGAUCACCCCAUAGUCCUUCACCUAUUGCUACACCACCUAGUCAGAGUUCAUCCUGCUCUGAUGCCCCCAUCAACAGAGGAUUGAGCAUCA` is reported as 1.04 ratio.
The bound/input enrichment of `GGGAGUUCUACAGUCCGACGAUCCAACUCCAUGGUGGAGGGCUCAGAACUCAAAAAGGUCCGCUCCAACUCCAGAAUUUACCAUCGCUAUUUCCUGCUGGACGCCGACAUGCAAAGCCUGAGGUGGGAGCCAUCUAAGAAGGACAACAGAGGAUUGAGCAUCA` is reported as 0.227 ratio.
With `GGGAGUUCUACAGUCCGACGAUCUGAGCAUACAUAUACAAUGUGUUUCAAAUGCUGCUUGUAAAAUUAAACCAUCAUCUAGAGUAGAGUUAAUUUGUUAUAAUCAAGCUACAAAUAGGUUUUCUUAAACCAGAGAUGCACUGCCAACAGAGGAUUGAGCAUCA` the bound/input enrichment was 0.39 ratio.
